Measured values of several laboratories.
Numbered parts are unrelated; each lists some results of a single study.

Block 1
Target: Ras GTPase-activating protein-binding protein 1, full length (G3BP1, Homo sapiens, UniProt Q13283)
Sequence of UniProt Q13283 (whole entry, looked up): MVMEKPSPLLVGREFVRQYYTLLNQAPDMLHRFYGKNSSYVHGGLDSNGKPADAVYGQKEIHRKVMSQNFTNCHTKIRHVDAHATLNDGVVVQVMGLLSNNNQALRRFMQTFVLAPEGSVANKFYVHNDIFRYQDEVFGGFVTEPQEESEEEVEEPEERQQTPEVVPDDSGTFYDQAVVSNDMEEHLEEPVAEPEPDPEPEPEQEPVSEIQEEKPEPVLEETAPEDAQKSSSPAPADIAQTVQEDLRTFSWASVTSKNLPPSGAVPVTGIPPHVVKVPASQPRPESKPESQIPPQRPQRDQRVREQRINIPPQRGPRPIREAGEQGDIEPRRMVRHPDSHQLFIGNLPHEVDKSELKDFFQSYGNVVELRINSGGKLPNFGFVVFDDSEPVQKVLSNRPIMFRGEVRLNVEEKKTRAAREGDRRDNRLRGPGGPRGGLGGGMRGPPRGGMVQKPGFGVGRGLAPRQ
Method: RNA Bind-n-Seq
Molecule type: RNA
Medium: in vitro
Concentration: 200 nM
Setting: whole 134-nt RNA, ends assumed
With: 150 mM KCl
Baseline: input library
Reading: higher = stronger binding
Constant ends, left off below: GGGAGUUCUACAGUCCGACGAUC … UGGAAUUCUCGGGUGUCAAGG
Oligonucleotide | log2 enrichment
CUCAAGUCCUGUGCUACACAUCGUAUGUACCGAAUCGGUUGGGUUGGGUUGGGGAAAGUAUUAUGUUACGCCGUUCGGAUCUGCACUUCC | 0.575
UAACUUUUGAGGAGGAUCUGAUGGAUAUGGCAGUGGACGUGGAUUUGGGGAUGGCUAUAAUGGGUAUGGAGGAGGACCUGGAGGUGGCAA | 0.523
CCUGUGCUACACAUCGUAUGUACCGAAUCGGGGAAAAAAAGGGAAAAAAAGGAAAAAAAGGAAAGUAUUAUGUUACGCCGUUCGGAUCUG | -0.514
GUCCUGUGCUACACAUCGUAUGUACCGAAUCGGAAAAAAGGGAAAAAAGGGAAAAAAGGAAAGUAUUAUGUUACGCCGUUCGGAUCUGCA | -0.791
UGGCCCUGGUGGCAUGCGGGGAGGAAGAGGUGGCCUCAUGGAUCGUGGUGGUCCCGUUGGAAUGUUCAGAGGUGGCCGUGGUGGAGACAG | 0.148
AAGUCCUGUGCUACACAUCGUAUGUACCGAAUCGGGUUUGGGAAAAAGGGUUUGGGAAAGUAUUAUGUUACGCCGUUCGGAUCUGCACUU | 0.397
CAAGUCCUGUGCUACACAUCGUAUGUACCGAAUCGGGAGGGAAAAAGGGUUUGGGAAAGUAUUAUGUUACGCCGUUCGGAUCUGCACUUC | 0.653
GCAGGAAGAAAAAACAAAUGGAAAUGCUUCGGAUAGUGGCAGGGGUGGGGGUUGCUAAGGAAAGGGUGGGAUGGGAGUGGGUAAAGAGUU | 0.869

Block 2
Target: RING finger protein unkempt homolog, zinc fingers 1-6, SBP tag (UNK, Homo sapiens, UniProt Q9C0B0, residues 30-357)
Sequence of UniProt Q9C0B0 (30-357, looked up): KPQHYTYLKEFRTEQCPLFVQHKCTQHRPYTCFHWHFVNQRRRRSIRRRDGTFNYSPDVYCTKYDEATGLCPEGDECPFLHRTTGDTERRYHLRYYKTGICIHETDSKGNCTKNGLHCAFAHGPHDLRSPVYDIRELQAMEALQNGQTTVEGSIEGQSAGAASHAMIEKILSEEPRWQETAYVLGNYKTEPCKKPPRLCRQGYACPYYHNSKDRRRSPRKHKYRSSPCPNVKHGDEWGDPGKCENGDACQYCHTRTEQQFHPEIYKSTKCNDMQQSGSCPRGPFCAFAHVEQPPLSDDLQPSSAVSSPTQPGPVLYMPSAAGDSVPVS
Method: RNA Bind-n-Seq
Molecule type: RNA
Medium: in vitro
Concentration: 100 nM
Setting: RNA with constant flanks, vertebrate orthologous sites, ends assumed
Baseline: input RNA pool
Reading: higher = stronger binding
Constant ends, left off below: GGGAGUUCUACAGUCCGACGAUC … CAACAGAGGAUUGAGCAUCA
Oligonucleotide | bound/input enrichment [ratio]
CGGGGUGUACCUGUGGGGCGCUGCUGGCCACCGAGUGUCGUUUGAUUUGUGACCUUGACCUAAUAGAUAGGCUUGUGUUUUUGUUUUUUGGGUUUUUUUUUUAAUUUAAAAAUGUUAAGA | 0.593
CACAUCUGGUGAUAUCUGGCCUGGCCUUUCAGCUUAUGAUAAUAGUCCGAGAUCACCUCAUAGUCCUUCACCUAUUGCUACACCACCCAGUCAGAGUUCCUCUUGCUCAGAUGCCCCCAU | 1.08
UUACAGUCAUUGAUGGACUCUAUUUUUUUAUUAUUACUUGGACCUUGGUCGUUUUUAUACUAGCAACAAAAAUGGUUUUGUUUCUGUUCUUUUUUUUUUGUUUGUUUUUUUUCCUUCUUU | 1.28
CAGUGCCAUGGUGGAUGGAUCCGAGCUGAAGAAAAUCCGAUCCAAUUCACGCAUUUACCACCGCUACUUUCUCCUUGACGCGGACAUGCAGUCUUUAAGAUGGGAGCCCUCAAAGAAGGA | 0.385
UUCAGGCACAACUGACUGGCUCACAGCAUUCCUUGCAUAGUUAUCUAGCAAAUGCAAGUGUGGUUAAUUUUCAGGAAACAACCAGGCAGUCAUCUUUACCUUGUAGCCCAGUCGGAGAUU | 0.393
AUUGUGAUAGAGGGGCAAUAUUGAGUAGUAUUCUUGUCUUUAUCUUUUGUCCCCAAAACCUAGCUUUCUUUUUAAAAUUUCACUACCCUUGAAAUUCGUAUUUCCAGUUUCCACAUUGUU | 7.41
GUUGUGUUUUGUACAGGGCACCAUUCUCUGUACACGUUUGUGGUUAUAAAAUUAGUAAAACAGCUUACAUUUGUAUUUAUUUUCUAGUCCAUACUUCUGUACCCCCAUUUUUUUCUCCCU | 0.98
AGAAAAUUUUAACCAAGAACCUGAAGGUAGAAAUACAGGACCAUGGUUAUCUUCCUCACUUAGAAAUAGAUGCACACCUUUGUUCUCUAGAAGGAGACGAGAGGGACGAGAUGAAUCUUC | 0.802

Block 3
Target: Interferon regulatory factor 5, full length, phosphomimetic (IRF5, Homo sapiens, UniProt Q13568-2, residues 1-514, K96S/S451D/S453D/S456D/S462D)
Method: protein-binding microarray
Molecule type: double-stranded DNA, one strand shown
Medium: in vitro
Concentration: 250 nM
Setting: 60-bp whole probe
With: salmon DNA 0.4 mg/ml
Baseline: random background probes
Reading: higher = stronger binding
Constant ends, left off below: GCCTAGCAC … GTCTTGATTCGCTTGACGCTGCTG
Oligonucleotide | log fluorescence
TCATTTTTCTAACCCATACTGTGCTAG | 0.698 z-score
TTAGGTTTCTGGTTTCGGTTAGTGCTA | 9.29 z-score
TTAGTACTGGGACTGGGTTAGTGCTAG | -0.622 z-score
GACGGTCTCAGTATCGGGACGTGCTAG | 1.54 z-score
CTCACCTCAGCCTCCCAAGTGTGCTAG | -0.303 z-score
TTGGATTTCGGGTATCGATTAGTGCTA | 7.15 z-score
GACGGTCTCGGACGGGGGACGTGCTAG | 0.407 z-score
TGAGCTTACAATATAAAAGGGTGCTAG | 0.211 z-score
GACGGTCTCCTACAGCTGACGTGCTAG | -0.313 z-score
GACGATATCATACTGGAGACGTGCTAG | 0.483 z-score

Block 4
Molecule: PhoQ, residues 284 288 289 292 302 303 SASVAL
Method: Sort-seq
Measured: YFP reporter
Medium: E. coli
Setting: PhoQ-PhoP variant library
With: 10 µM Mg2+
Baseline: high Mg2+ state
Reading: higher = stronger signaling
target | fold induction
PhoP, residues 12 14 15 18 19 LHTVL (Escherichia coli, UniProt P23836) | 9.56
PhoP, residues 12 14 15 18 19 TQAML (Escherichia coli, UniProt P23836) | 1.21
PhoP, residues 12 14 15 18 19 NQCAL (Escherichia coli, UniProt P23836) | 6.45

Repeated from above (block 2):
Oligonucleotide | bound/input enrichment [ratio]
CGGGGUGUACCUGUGGGGCGCUGCUGGCCACCGAGUGUCGUUUGAUUUGUGACCUUGACCUAAUAGAUAGGCUUGUGUUUUUGUUUUUUGGGUUUUUUUUUUAAUUUAAAAAUGUUAAGA | 0.593
CACAUCUGGUGAUAUCUGGCCUGGCCUUUCAGCUUAUGAUAAUAGUCCGAGAUCACCUCAUAGUCCUUCACCUAUUGCUACACCACCCAGUCAGAGUUCCUCUUGCUCAGAUGCCCCCAU | 1.08
UUACAGUCAUUGAUGGACUCUAUUUUUUUAUUAUUACUUGGACCUUGGUCGUUUUUAUACUAGCAACAAAAAUGGUUUUGUUUCUGUUCUUUUUUUUUUGUUUGUUUUUUUUCCUUCUUU | 1.28
CAGUGCCAUGGUGGAUGGAUCCGAGCUGAAGAAAAUCCGAUCCAAUUCACGCAUUUACCACCGCUACUUUCUCCUUGACGCGGACAUGCAGUCUUUAAGAUGGGAGCCCUCAAAGAAGGA | 0.385
UUCAGGCACAACUGACUGGCUCACAGCAUUCCUUGCAUAGUUAUCUAGCAAAUGCAAGUGUGGUUAAUUUUCAGGAAACAACCAGGCAGUCAUCUUUACCUUGUAGCCCAGUCGGAGAUU | 0.393
